Published values from different studies.
Parts stem from different laboratories: compare values within a part only.

Block 1 — method: protein-binding microarray; form: double-stranded DNA, one strand shown; sample: in vitro; tested at: 0.8 µM; setting: whole 60-bp probe, no competitor; reading: higher = stronger binding; constant ends, left off below: … GTCTTGATTCGCTTGACGCTGCTG
Target: Centromere-binding protein 1, full length, N-terminal tag (CBF1, Saccharomyces cerevisiae, UniProt P17106, residues 1-351)
UniProt P17106, sequence (whole entry, looked up): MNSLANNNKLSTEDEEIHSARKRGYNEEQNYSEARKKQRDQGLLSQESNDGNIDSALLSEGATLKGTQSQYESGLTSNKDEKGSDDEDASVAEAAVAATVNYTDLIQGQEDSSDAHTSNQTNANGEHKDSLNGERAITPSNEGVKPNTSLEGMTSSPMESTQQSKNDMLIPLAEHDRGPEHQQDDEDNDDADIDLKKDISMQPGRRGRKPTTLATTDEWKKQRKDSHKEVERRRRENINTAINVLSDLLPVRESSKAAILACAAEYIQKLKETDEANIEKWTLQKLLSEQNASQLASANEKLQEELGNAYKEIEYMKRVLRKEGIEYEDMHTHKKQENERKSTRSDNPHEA
The fluorescence intensity of `CTATCGATAATTTTTTTAGTCACAGGGTCCGTCTTC` is reported as 1340 a.u.
For `CTAGGATTCCTCTATGGCGTGTGATGTCTGTATTTC`, the fluorescence intensity was 619 a.u.
The fluorescence intensity of `GAAGAGGATTATTGTCATGTGAAGGCGTGATAGTAG` is reported as 1260 a.u.
`CCTAACTACTATAAATACGTGACATAGCTTCGTACA` has a fluorescence intensity of 709 a.u.
`CTAGAACGCAAAGAGTGTGTGACACGAAATTCATTC` gave a fluorescence intensity of 804 a.u.
For `CTATACTGCCTTTATCATGTGACTGAACTACGCTTC`, the fluorescence intensity was 3840 a.u.
With `CTATTTTGATTTACTCACATGCTTAGTAAATGATTC` the fluorescence intensity was 1470 a.u.
`CTAATATTCTGATTTCTCGTGATCGAATCTGTTTTC` has a fluorescence intensity of 945 a.u.
`CTAGACTAACTTCATGACACAACCACTGTTGTATTC` gave a fluorescence intensity of 518 a.u.
`CTATAGAGCTACTATCACATGTTGAACCTTGAATTC` has a fluorescence intensity of 1120 a.u.
`CTACACATGAGTCGTCGCACGCCAGTAAATCTATTC` has a fluorescence intensity of 545 a.u.
`CCTAACTACTATACTCACGTTAGATAGCTTCGTACA` has a fluorescence intensity of 544 a.u.
With `CTATGAAATTAGTGGCACGGTCTTTTATTCCTGTTC` the fluorescence intensity was 610 a.u.
With `CTAATAATATAGTTACATGTGATGAATGTATGGTTC` the fluorescence intensity was 1650 a.u.
`TGTACGAAGCTATAACGTGACATTATAGTAGTTAGG` has a fluorescence intensity of 1960 a.u.
With `GAAACTTTATGTGACATCAGCATCCTAAGTACCTAG` the fluorescence intensity was 507 a.u.
With `CTAGTTGTTCTTGCTTCGCTGATGTTTATCAATTTC` the fluorescence intensity was 508 a.u.
`CCTAACTACTATAATTAGCACGTATAGCTTCGTACA` has a fluorescence intensity of 532 a.u.
`GAAACAGTAAAAAGTCATGTGTTTTTGATTATTTAG` has a fluorescence intensity of 1640 a.u.

Block 2 — method: RNA Bind-n-Seq; form: RNA; sample: in vitro; tested at: 365 nM; reference: no-protein control; reading: higher = stronger binding
Target: RNA binding protein fox-1 homolog 2, RRM domain, GST-SBP tag (RBFOX2, Homo sapiens, UniProt O43251-10, residues 100-194)
Setting: natural RNA segment, single round, ends assumed
Constant ends, left off below: GGGAGUUCUACAGUCCGACGAUC … UGGAAUUCUCGGGUGCCAA
Residues (chain): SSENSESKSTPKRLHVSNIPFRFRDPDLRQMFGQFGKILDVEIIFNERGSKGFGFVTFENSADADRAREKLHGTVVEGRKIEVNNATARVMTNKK
`AACUGGAAAGGCUGUCUGGGGUCUUCUGACUGCAGGGGAAGGAUGUACUUUCCAAACAAAUGAUACAACCCUGACCAAGCUAAAAGACGCUUGUUAAAGGCUAUUUUCUA`: “RBNS enrichment (R)” 0.542.
`ACACACCAAUCAAAACCUUAUUGGUCUGGAAGUUGGGAUUCCGUUUUUGGUAGAUCGUGGUAGAUCUGGUACUCCUAACUCCCUGGUCCUCAGGCGGCUCCUCUGUAAAA`: “RBNS enrichment (R)” 0.684.
`GAUUCAUUUUUCCUCCACUUUCCUGAGAGACCAAAAGUGUUCCUUGAGAUGUCACCAUUUGUCUUUCACAGUGACUUCCUUCCCUGAGCAAACAUUCAUGUGGCUUCGCU`: “RBNS enrichment (R)” 0.366.
For `AUGCUUAAAAGGUUGCAUACUGAGCCAAGUAUAAUUUUUUGUAAUGUGUGAAAAAGAUGCCAAUUAUUGUUACACAUUAAGUAAUCAAUAAAGAAAACUUCCAUAGCUAU`, “RBNS enrichment (R)” read 0.292.
`AGGACCAUGAGAAAUUUAAUAAAAUAGAUGGACCUUCCAGGAUUUAUUGUGGAUGGAUGUGGAUAUAUUCUGUACAGAAAACUACUCAUAUGGAAGUGGACUGAAUCCUA`: “RBNS enrichment (R)” 0.599.
For `GUGGGAAAUGAAACAGUGUUCUGAUCCAUUGCCAAAGGAUGUAGGAAAACAGUUGGGUUUUGUUCAACCUACUGUAAGCUCUGGUGUAUGUUCUCAAGGCUAAUUUAUCU`, “RBNS enrichment (R)” read 1.54.
`ACUCAUCAGAGUGCGGAUUGCCAAGACCCUUCUCCAGAGAUUAUGGGGUUGGGGGUGGAGGUCUAGAGGUGAGCUCAGAAACCUACUGUUAACCAACACCCCCAAGUGAC`: “RBNS enrichment (R)” 0.238.
Under “RBNS enrichment (R)”, `AGAUGGUGGAAUAGGUUUUAUCACAUCUCUUAUUUCUCUUUUCCCCUUACUCUCUACCAUUUCCUUUAUGUGGGGAAACAUUUUAAGGUAAUAAAUAGGUUACUUACCAU` is recorded as 0.641.

Block 3 — method: RNA Bind-n-Seq; form: RNA; sample: in vitro; tested at: not given; reference: input RNA pool; reading: higher = stronger binding
Target: RING finger protein unkempt homolog, zinc fingers 1-6, GST-SBP tag (UNK, Homo sapiens, UniProt Q9C0B0, residues 30-357)
Setting: RNA with constant flanks, human-mouse chimeric sites, ends assumed
Constant ends, left off below: GGGAGUUCUACAGUCCGACGAUC … CAACAGAGGAUUGAGCAUCA
Target sequence (chain): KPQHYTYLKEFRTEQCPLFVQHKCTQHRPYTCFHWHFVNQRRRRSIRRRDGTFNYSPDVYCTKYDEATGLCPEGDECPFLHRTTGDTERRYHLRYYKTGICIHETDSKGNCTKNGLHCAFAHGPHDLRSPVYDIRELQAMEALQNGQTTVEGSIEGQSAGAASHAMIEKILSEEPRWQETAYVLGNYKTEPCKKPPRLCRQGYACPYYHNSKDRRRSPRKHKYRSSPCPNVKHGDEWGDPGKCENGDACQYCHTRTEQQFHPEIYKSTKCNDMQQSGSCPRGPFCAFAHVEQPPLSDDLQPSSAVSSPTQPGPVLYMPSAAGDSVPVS
The bound/input enrichment of `CGCUGGCCCAAGCUGAUGGACUCUGAUGGCCUCCAUCUCUCAGGCACGUGUGCCUUCUCUUAGUUAUUGUUUUCGGGUCACAAAGCUUCUCAGUACUGUGGUUUGAAAGCACCAGCUUUG` is reported as 0.419 ratio.
`AUCAAAUACUUUGGGGAUAUUAUUAGCGUGGGACAGAGACUGUUGCAAGGAGCUCGGAUUUUAGGAAUUCCAGUUAUCAUAACGGAACAAUACCCCAAAGGACUUGGCAGCACCGUUCAA` has a bound/input enrichment of 0.703 ratio.
With `AACUUUGUACAUAGAUUUCCCUUUGUAGCUGUUUCAAUUGGCUUCCUUGUGAAUAAAGAGAUGGAGUUUGGAAUUGUGUACAGCUGUGUGGAAGAUAAGAUGUACACCGGCAGGAAAGGG` the bound/input enrichment was 0.787 ratio.
`AGAAAGCAAAACUUGGAACGAUUUAAGAAAGGAGAUGUAAGAUUCUUGAUUUGCACAGAUGUAGCUGCUAGAGGGAUUGAUAUCCAUGGCGUUCCUUAUGUGAUCAAUGUCACUCUGCCU` gave a bound/input enrichment of 0.142 ratio.
The bound/input enrichment of `CGCUGGCCCAAGCUGAUGGACUCUGAUGGCCUCCAUCUCUCAGGCACGUUUGCCUUCUCUUAGUCCCUGUUUUCGGGAUGUUAUGAAUCUCAGUACUGUGGUUUGAAAGCAGUUAUGUUG` is reported as 0.185 ratio.
For `GUUGCCAGCUUCCGGUUCCGUUGGGCUCGGUUCUCUCCUGAGCUACGUGUCUCUACGCUCUCAAUCCGCCAUCCAACAAACAUGGAUCAGGUAAUGCUGCAGUUUGUUGAGCCAAGUCAG`, the bound/input enrichment was 0.0882 ratio.
For `CUGUGACUGAUGGCAGCUACCUGAGUGGCAGCUGAAGUUGACUCCCUCUCCUUGCCUGCCUAGUUUCCCACUGCCCCCCCAUCCCCCAGUGUCGGCUGAGAUGUUGCCUCUGCACGGUUC`, the bound/input enrichment was 1.71 ratio.
For `GGUGGGGUGGUCAUUGCCGUUUGAGCUGCUGAUUUUCAUGAGUCGCCCAUUCAGAACUCGUGUAGGGUUGACAAUGUGGGGGGGUGGGGGAUCCAGCUAUUUUUUUUAUUUUCAAGUCCA`, the bound/input enrichment was 2.29 ratio.

Block 4 — method: protein binding microarray; form: double-stranded DNA, one strand shown; sample: in vitro; tested at: not given; reference: not given; reading: higher = stronger binding
Target: Histone acetyltransferase KAT6A, winged helix 1, GST fusion (KAT6A, Homo sapiens, UniProt Q92794, residues 1-85)
Setting: 8-mer, flanks averaged, mean of 2 arrays, mostly near background
Construct (chain): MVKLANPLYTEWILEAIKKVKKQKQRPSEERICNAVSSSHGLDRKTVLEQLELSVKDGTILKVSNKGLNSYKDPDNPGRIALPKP
`CCGTATGA` has an E-score of 0.177.
For `ATCATGGC`, the E-score was -0.104.
The E-score of `AGGCTCAC` is reported as -0.0012.
`TGTTAAAA` has an E-score of -0.165.
With `ACACCGCT` the E-score was 0.176.
With `CAAAATTG` the E-score was -0.229.
`CCTGCAAG` has an E-score of -0.193.
`CCAATCTA` has an E-score of -0.253.
With `CCGGCTGA` the E-score was 0.208.
With `GCTCGACA` the E-score was -0.116.
`ATAGAGGA` has an E-score of -0.301.
`GACGTGGC` has an E-score of 0.0156.
The E-score of `GAATGATA` is reported as -0.112.
`AAAGATCC` gave an E-score of -0.102.
`ACCGTTTC` gave an E-score of 0.104.
For `CATCCGGC`, the E-score was 0.157.
For `AGTAGCGA`, the E-score was -0.0465.
With `AATAGGTA` the E-score was -0.132.
`AAGCTAAG` has an E-score of -0.123.
`GGAAAAAC` has an E-score of 0.0141.
The E-score of `ACCTTGCG` is reported as 0.0785.

For quick reference, copied from above (block 1):
`CTAGACTAACTTCATGACACAACCACTGTTGTATTC` gave a fluorescence intensity of 518 a.u.
`CTATAGAGCTACTATCACATGTTGAACCTTGAATTC` has a fluorescence intensity of 1120 a.u.
`CTACACATGAGTCGTCGCACGCCAGTAAATCTATTC` has a fluorescence intensity of 545 a.u.
`CCTAACTACTATACTCACGTTAGATAGCTTCGTACA` has a fluorescence intensity of 544 a.u.
With `CTATGAAATTAGTGGCACGGTCTTTTATTCCTGTTC` the fluorescence intensity was 610 a.u.
With `CTAATAATATAGTTACATGTGATGAATGTATGGTTC` the fluorescence intensity was 1650 a.u.
`TGTACGAAGCTATAACGTGACATTATAGTAGTTAGG` has a fluorescence intensity of 1960 a.u.
With `GAAACTTTATGTGACATCAGCATCCTAAGTACCTAG` the fluorescence intensity was 507 a.u.
